Measurements gathered from unrelated publications.
± gives the spread as reported.

N=C(N)NCCNC(=O)C1(Nc2ccccc2)CCN(Cc2ccccc2)CC1  half-life (male Sprague-Dawley rats, plasma; intravenous, 2.5 mg/kg): 0.9 ± 0.1 h
CCn1cc(C(=O)N2CCOCC2)c(=O)c2cc(NC3Cc4ccccc4C3)cnc21  half-life (human female, fed, plasma; oral, 900 mg twice daily, day 1, tablet, arithmetic mean): 4.55 h
CCOc1c([C@H](C)n2nc(C)c3c(N)ncnc32)cc(Cl)c(F)c1[C@@H]1CNC(=O)C1  half-life (patients, monotherapy; oral, 45 mg once daily, cycle 1 day 15): 11.2 ± 2.1 h
Cc1cc(NC(=O)c2cccc(NC(=O)/C=C/CN(C)C)c2)ccc1Nc1nccc(-c2cccnc2)n1  half-life (Wistar rat male, blood plasma; 1 µM): 5.02 h
Cc1cccc(CNC(=O)c2cn(CCNC(=O)c3ccccc3S)c3cc4c(cc3c2=O)OC(F)(F)O4)n1  half-life (Sprague-Dawley rat, male, plasma; intravenous, 5 mg/kg): 0.99 ± 0.28 h
CC(C)[C@@H](CN1CC[C@@](C)(c2cccc(O)c2)[C@@H](C)C1)NC(=O)[C@H]1Cc2ccc(O)cc2CN1  half-life (Sprague-Dawley rat, brain; intraperitoneal, 10 mg/kg): 65.3 h
Cc1cccc(CNC(=O)c2cn(CCNC(=O)c3ccccc3Sc3c([N+](=O)[O-])ncn3C)c3cc4c(cc3c2=O)OC(F)(F)O4)n1  half-life (Sprague-Dawley rat, male, plasma; intravenous, 20 mg/kg of parent drug): 1.9 h
Cl.[2H]C([2H])([2H])CC(=O)c1cnc(NC(=O)C2CC2)cc1Nc1cccc(-c2ncn(C([2H])([2H])[2H])n2)c1OC  half-life (human, fasted, multiple dose; oral, 20 mg twice daily, tablet, day 14, geometric mean): 9.61 h
